Measured values collected from several papers.
Every numbered part comes from another study and shows a few of its results, in no order.

Set 1 — technique: universal PBM; form: double-stranded DNA, one strand shown; matrix: in vitro; tested at: not given; reading: higher = stronger binding
Target: Sal-like protein 4, full length isoform B (SALL4, Homo sapiens, UniProt Q9UJQ4-2, residues 1-616)
Notes: 8-mer, flanks averaged, mean of replicates
Oligonucleotide | E-score
CTTGTTTC | 0.00673
CAAACAAG | -0.178
CACTTATG | 0.231
AATGGTCG | -0.0851
CGGTCCCC | -0.411
ACACACGA | -0.0164
GGCGTCAA | -0.199
AACATCAT | 0.268
CGGACGGA | -0.29
TAGTTTAA | 0.291
AGGTCAGG | -0.346
ACCCAATA | 0.0838
AATCTTTC | 0.116
ACCCCAAC | -0.0548
ATACGGTA | 0.202
ACTCGTAG | 0.00834
AGCAATGA | -0.0216
ATCCTCAA | 0.108
AGTGCGTG | -0.206
GGGACCAA | -0.27
CATGCCGG | -0.146

Set 2 — technique: protein binding microarray; form: double-stranded DNA, one strand shown; matrix: in vitro; tested at: not given; baseline: not given; reading: higher = stronger binding
Target: Histone acetyltransferase KAT6A, winged helix 1, GST fusion (KAT6A, Homo sapiens, UniProt Q92794, residues 1-85)
Notes: 8-mer, flanks averaged, mean of 2 arrays, mostly near background
Residues (chain): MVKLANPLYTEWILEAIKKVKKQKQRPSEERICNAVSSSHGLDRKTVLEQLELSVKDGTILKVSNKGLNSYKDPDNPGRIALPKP
Oligonucleotide | E-score
GCACGACA | -0.0454
AAATGACT | -0.208
GCGCATTA | 0.213
ACTTCGGG | -0.0346
ATGTCACC | -0.0613
AATGAAGG | -0.222
CGGGGTAC | 0.288
CGCCGTCA | 0.425
ATATCACC | 0.0278
CGTGGCAA | -0.0366
GTCCCTGA | -0.178
CAAAGGAA | -0.177
GCCCACCA | -0.253
ACAACAGC | 0.17
AGGAACCG | -0.00541
ATTGGCGC | 0.213
CCACGGCC | 0.302
ATGCGGCG | 0.413
CACACTTC | -0.147
AGGTTTTA | -0.0377
GTTTTGAA | -0.201
TGTGGTAA | -0.271
AGGGGGCA | -0.0673
ATGGCAGG | -0.0615
CTGGTGCA | -0.158

Set 3 — technique: RNA Bind-n-Seq; form: RNA; matrix: in vitro; tested at: 365 nM; baseline: no-protein control; reading: higher = stronger binding
Target: RNA binding protein fox-1 homolog 2, RRM domain, GST-SBP tag (RBFOX2, Homo sapiens, UniProt O43251-10, residues 100-194)
Notes: natural RNA segment, single round, ends assumed
Constant ends, left off below: GGGAGUUCUACAGUCCGACGAUC … UGGAAUUCUCGGGUGCCAA
Residues (chain): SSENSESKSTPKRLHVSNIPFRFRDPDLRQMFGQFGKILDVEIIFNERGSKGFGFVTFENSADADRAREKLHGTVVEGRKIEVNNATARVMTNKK
Oligonucleotide | RBNS enrichment (R)
CUGCAUCAAGAUAGCACCCCUUUGUGGGAGGCCCUGAGUAUCUUCUCUUCCUCUACUGCCUAACUGUUGGUGGGCUGUAUCAUUCAAUAAGAUCACUUCAUUUUCAACUU | 0.421
CCUAUUGAACAUUUGAUCAGAAUGAACUUGCCAAUCAAAACAAAAACAGGACAAUCAAUUUAAGACAACAGAAAUAGAGAUUGUUAAAUAAAACCAUUAGUAUUUUACUU | 0.494
UUCAGAUAUCCAAGCAGAAUUUUAUUAUGGACACCUUGUAAUGAAUUCAAAUCGUGUGACAGCAAACGGGAUAAAUGGCCCCUUCUCACCCAGUUCCGCUCAGGGCCAUA | 0.349
UUUUAGGUUGUGUGCAGUUGAUAUUUAACAUUGAUUUAUUUUUGAUCAUUUAAGUAAUAGUUAGUAAUCACGUAAAUACACCCGGACAGAAAUAUAAUGUCUGGAUCUAC | 0.349
UUAAUCAGAUAGAAGUUCUAGUCAAGAGGGAUAUUGUUGAAGUUACCUCUUUUAGCCUAGAUACAUGGAUUCUUUUCAAAUCAGGAAAGAUUAGAAAAGGAACCCAAAAA | 0.303
CUAUACUGGUCACUUACCACCUGGGGCCUCAGUUUCCUGAUCUGCGAAAGGGGCAAGGGCUAAGGCAGAUGAUAAUCUGAAGCUAGAUUAAACAGUCUAGGUGCUCCUAA | 0.428
GCCCCCCUGUCUGAUGUUGAUGAGGGGUCAUACCAGCCAGGGAGACCCUCUGGGAGGAAGCUGCCACACACAAGGACUCUGGAAGUAUCCAGAUGUGAGCCCAGCCAGGG | 0.515
CCAGGCCUGACUGGGGUAAGAAACAUGCCUCCACUUUACAGAGGUAGCUAUGGGUUUGGAACACUGGACUUGACUAUGGGGUGCUGGGAGUCAAGUCUCAGCUUUACCAC | 0.321
CUUGUCCCUCAGCUCACACUUGGCGGUGGCCUCUCGAUCACUCUGGGUCUUGGGAGCUCUUGCCUUCACCUGUGGAUCCACUUAAGACAUUGUGGUCUGAAGCUCAGGCC | 0.289
UGCUUUGCCUUCACCACCGCUAGUCUGUUUGGAAGGCUUGAGGUGGGGUGUCUUGGGAAAUUAGGGCCACUACCCAAGAUUUGAAUUUAGGGAGUGGGAGCAGCCUCAGC | 0.532
CCUGAGGGUCAGUGCUCAGCCCAGCCCUCCACUGUUGGUGGCAACCGUGGGACACCUCAUUCCCUACCCCAAACGGGCCUUUUAAUUGUCCUGGUCACUUGUACUGGUUA | 0.443
CUAGCGUCCGCCCUACUCUGCCGCACUUGCCUGUUCGUUUCCUUUCCAUUUUGCACUUGCACUAUUGAACAUGACCCUGCCAGAAAUGCAAAGGGAAUGAAAUCCUGAAG | 4.56

Set 4 — technique: RNA Bind-n-Seq; form: RNA; matrix: in vitro; tested at: not given; baseline: input RNA pool; reading: higher = stronger binding
Target: RING finger protein unkempt homolog, zinc fingers 1-6, GST-SBP tag (UNK, Homo sapiens, UniProt Q9C0B0, residues 30-357)
UniProt Q9C0B0, sequence (30-357, looked up): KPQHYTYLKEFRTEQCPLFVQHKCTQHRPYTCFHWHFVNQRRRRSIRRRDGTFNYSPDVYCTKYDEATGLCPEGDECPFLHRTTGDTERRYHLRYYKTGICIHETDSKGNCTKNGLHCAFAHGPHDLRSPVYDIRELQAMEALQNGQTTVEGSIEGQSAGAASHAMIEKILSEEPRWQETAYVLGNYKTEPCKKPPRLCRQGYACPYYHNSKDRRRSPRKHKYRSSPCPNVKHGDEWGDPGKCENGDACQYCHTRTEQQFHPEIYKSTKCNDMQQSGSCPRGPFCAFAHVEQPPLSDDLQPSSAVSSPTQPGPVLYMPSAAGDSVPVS
Notes: RNA with constant flanks, human-mouse chimeric sites, ends assumed
Constant ends, left off below: GGGAGUUCUACAGUCCGACGAUC … CAACAGAGGAUUGAGCAUCA
Oligonucleotide | bound/input enrichment [ratio]
UGGCGCCUCCCAUUUUUACUCGUGUUUUUAAGUGUAUUUUUAUAAGACAUGUGUAUUUACAAUUGAGCUUUUGUUACAUAAUGCUGAAAUGCUACUGGAGAUUAUGAAAAAUGUUUCAAU | 0.2
GGUGGGGUGGUCAUUGCCGUUUGAGCUGCUGAUUUUCAUGAGUCGCCCAUUCAGAACUCGUGUAGGGUUGACAAUGUAAGGGGUGGGGGGAUCCAGCUUAUUCUUUUAUUUUCAAGUCCA | 0.433
AUCAAGUACUUUGGGGAUAUUAUUAGCGUGGGACAGAGACUGUUGCAAGGAGCUCGGAUCUUAGGGAUUCCAGUUAUCAUAACGGAACAAUACCCCAAAGGACUUGGCAGCACCGUUCAA | 0.235
UCCCAAAUCCAGCAGCUAGAAGGAGCCUUGAGACAAACACUCCACACACAGGGAAGGCGAUAACAUUGUAAAUUGGUUUACAUUUUUUCCCCCUGUGGAUUUUUCUAUCCUAGUGCUUGC | 0.312
AUCAAAUACUUUGGGGAUAUUAUUAGCGUGGGACAGAGACUGUUGCAAGGAGCUCGGAUCUUAGGGAUUCCAGUUAUCAUAACGGAACAAUACCCCAAAGGACUUGGCAGCACCGUUCAA | 0.305
UGUAGUUUCUUGAUUUAGUGGCUGGGCCUUUUCUUUCUUUCCUUUAGGAAAAGCCUAAAGAUUAGGUUGUAAGAAAAACAGAAGCCAGCCAUGUUUCACCUGUGUUACAGGUAUUUCGUC | 0.355
AAAGAAUGGAUAGAGUGUGCACACGGGAUCGGUGGGACCCGGGCGAAAAAGGAGUGCAAGAUAGAGUUCGAUGACUUCGAAGAGUGCUUGCUUCGGUAGAAAACGAUGAGGCGAAUGCAU | 0.775
CCCCACAACCAUUUGCAGGUCUGGAACUGCACUCUCUUUUUUAAAAAACAUGUAUACAUUUUAGGGCUGUAGAUUUAUUUUCCUGGUUUUGUUUUUCAUUGCUGACUUUUGAGCACAGAA | 1.7
AGAUUCCCCCUCCUGAGACCUCCUCCGAAGUUGGAGUCUCUUACAGAUGGUUCAUCUCCUGUUAGCGUUUUAGUUUGGACCACCCAGCCUUGGACGAUUCCCGCCAACCAGGCAAUUUGC | 1.74
GUAGCUGGGACUACAGAAAUGCUGGUAAUUUCAGUCACUUGCUGAUGACUUCUGAUGUCCCAGCAAAUGUUGGCAUUCACUGCAAUAGAGAAGAUACACUCGCAAGGCCACGUCUAAGGU | 0.152
UAAGUCCUGUGCCAGCACUUCGCUCAUAAAGUUUUAAAUUCUGGACCAAUUGUGUUUGUUUCCUGAUUAUUGUAUCCAAUACUUUAUCUAGUAUGUAACUCACUCUUACUGAUAAUAAAA | 0.824

A few entries again (set 3):
Oligonucleotide | RBNS enrichment (R)
CCUGAGGGUCAGUGCUCAGCCCAGCCCUCCACUGUUGGUGGCAACCGUGGGACACCUCAUUCCCUACCCCAAACGGGCCUUUUAAUUGUCCUGGUCACUUGUACUGGUUA | 0.443
GCCCCCCUGUCUGAUGUUGAUGAGGGGUCAUACCAGCCAGGGAGACCCUCUGGGAGGAAGCUGCCACACACAAGGACUCUGGAAGUAUCCAGAUGUGAGCCCAGCCAGGG | 0.515
UUCAGAUAUCCAAGCAGAAUUUUAUUAUGGACACCUUGUAAUGAAUUCAAAUCGUGUGACAGCAAACGGGAUAAAUGGCCCCUUCUCACCCAGUUCCGCUCAGGGCCAUA | 0.349
CCAGGCCUGACUGGGGUAAGAAACAUGCCUCCACUUUACAGAGGUAGCUAUGGGUUUGGAACACUGGACUUGACUAUGGGGUGCUGGGAGUCAAGUCUCAGCUUUACCAC | 0.321
CUUGUCCCUCAGCUCACACUUGGCGGUGGCCUCUCGAUCACUCUGGGUCUUGGGAGCUCUUGCCUUCACCUGUGGAUCCACUUAAGACAUUGUGGUCUGAAGCUCAGGCC | 0.289
UUUUAGGUUGUGUGCAGUUGAUAUUUAACAUUGAUUUAUUUUUGAUCAUUUAAGUAAUAGUUAGUAAUCACGUAAAUACACCCGGACAGAAAUAUAAUGUCUGGAUCUAC | 0.349
UUAAUCAGAUAGAAGUUCUAGUCAAGAGGGAUAUUGUUGAAGUUACCUCUUUUAGCCUAGAUACAUGGAUUCUUUUCAAAUCAGGAAAGAUUAGAAAAGGAACCCAAAAA | 0.303
CUGCAUCAAGAUAGCACCCCUUUGUGGGAGGCCCUGAGUAUCUUCUCUUCCUCUACUGCCUAACUGUUGGUGGGCUGUAUCAUUCAAUAAGAUCACUUCAUUUUCAACUU | 0.421
